Measurements from different studies.
Parts stem from different laboratories: compare values within a part only. Changes are numbered by the printed parent chain.

Block 1
Target: RNA binding protein fox-1 homolog 2, RRM domain, GST-SBP tag (RBFOX2, Homo sapiens, UniProt O43251-10, residues 100-194)
Method: RNA Bind-n-Seq
Molecule type: RNA
Matrix: in vitro
Concentration: 365 nM
Notes: natural RNA segment, single round, ends assumed
Reference: no-protein control
Reading: higher = stronger binding
Residues (chain): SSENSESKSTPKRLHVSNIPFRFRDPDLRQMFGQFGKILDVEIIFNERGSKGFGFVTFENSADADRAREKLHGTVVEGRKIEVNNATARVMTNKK
`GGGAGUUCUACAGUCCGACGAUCCUGUAAUGUUUGAUGUCUCAAAUGCACCGUAUUACGGUAAUAACAUGGUUUCGAAAACUUUCUGUUUUUAUUUUGUCACAGAGCUGUUGUCAUAGUUGAAAUGAUGUUUAUGGAAUUCUCGGGUGCCAA`: “RBNS enrichment (R)” 0.434.
`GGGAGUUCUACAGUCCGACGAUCCCGCUUCCACCACCAUGGUGUUUGUUUCUAGAACUUUUGCCAGUCCUUGAAGAAUGGGUUCUGUGUCUAAUCCUGAAACAAAGAAAACUACAAGCUGGAGUGUAGGAAUUUGGAAUUCUCGGGUGCCAA` — result for “RBNS enrichment (R)”: 0.305.
`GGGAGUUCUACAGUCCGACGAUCAAAAUUUAGUUAAAAAUUGAAGUAUUUCUGUCAUAGACAAAAUUACUCUGUUUUAACAUAUUCCUGGUGGACUAUAUCAACCUUUUGUGCCCUGAAAACUUGAAGGUUAAUGGAAUUCUCGGGUGCCAA`: “RBNS enrichment (R)” 0.295.
For `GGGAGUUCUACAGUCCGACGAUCUGAGUCUUGGAAAACACCCCAACCCCGGAAAUGUGUGGGAAAAAGAAAACAAAAACUUUCCAAAUUCAACGGUCCUGUGCAGUUUUUUUGGGGGUGGGUGCUGUUAGAUCUGGAAUUCUCGGGUGCCAA`, “RBNS enrichment (R)” read 0.534.
`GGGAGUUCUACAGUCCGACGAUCUACUGGGGAGGAGAGGAGGGCAAGUGAGAGGAGCCAGUGCCUCCUGAAGCCCUUGCUCCACUGCCACCAGCCCGCCUGCCCCAGUGCAGACUGGUCUUCAGGAGUCAGUAUGGAAUUCUCGGGUGCCAA`: “RBNS enrichment (R)” 0.306.
`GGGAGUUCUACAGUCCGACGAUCCCCACACUGAGCUGCCCACACUCGAGAGCCAGAUAUUUUUGUAGUUUUUAUGCCUUUGGCUAUUAUGAAAGAGGUUAGUGUGUUCCCUGCAAUAAACUUGUUCCUGAGAAUGGAAUUCUCGGGUGCCAA`: “RBNS enrichment (R)” 0.819.
`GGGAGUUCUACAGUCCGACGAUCUAGGGUUAUGUCACCAACUUGCAGCCUGAGACACUUGUUUUAAAAAGCUCAGUGUUUUAUUUCAGUAAAAAUUAUUUGGUCAUAAAUUUUGGGAAGAACUGAUUUCUUUUUGGAAUUCUCGGGUGCCAA` — result for “RBNS enrichment (R)”: 0.615.
For `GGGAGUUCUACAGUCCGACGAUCGAUAUCCUGAACUUAGAGCUCUUCAAUCCUAAGAUUUUCAUGAAAAGCCUCUCACUUGAACCCAAACCAGAGUACUCUUACUGCCUCUUUUCUAAAUGUUCAGGAAAAGCUGGAAUUCUCGGGUGCCAA`, “RBNS enrichment (R)” read 0.531.

Block 2
Target: Interferon regulatory factor 5, full length, phosphomimetic (IRF5, Homo sapiens, UniProt Q13568-2, residues 1-514, S451D/S453D/S456D/S462D)
Method: protein-binding microarray
Molecule type: double-stranded DNA, one strand shown
Matrix: in vitro
Concentration: 940 nM top
Notes: 60-bp whole probe
With: salmon DNA 0.4 mg/ml
Reference: random background probes
Reading: higher = stronger binding
All sequences stand within: GCCTAGCAC … GTCTTGATTCGCTTGACGCTGCTG
Under “fitted relative affinity”, `TCATCTGTCCCTCTGTGACTGTGCTAG` is recorded as 0.264 z-score.
`TTAGGTTTCGACTTTCGGTTCGTGCTA`: “fitted relative affinity” 9.52 z-score.
For `GACGATTTCAATTTCGAGACGTGCTAG`, “fitted relative affinity” read 0.615 z-score.
`CTTACTTTATGTAGGAAGTCGTGCTAG`: “fitted relative affinity” -0.362 z-score.
Under “fitted relative affinity”, `TCACTTTTCGCTTTCTTACTGTGCTAG` is recorded as 3.16 z-score.
For `CCGTAGCTTCCTTTCGCCGCGTGCTAG`, “fitted relative affinity” read 0.442 z-score.
For `TCATCTCTCCATGTGTTACTGTGCTAG`, “fitted relative affinity” read 1.04 z-score.
`GACGACATCAGTATCGAGACGTGCTAG` — result for “fitted relative affinity”: 1.84 z-score.
`TCATATTTAGAACTTCTCACTGTGCTA`: “fitted relative affinity” 0.423 z-score.
For `GACGGTTTGGACACTGGGGACGTGCTA`, “fitted relative affinity” read -0.322 z-score.
For `TTAGATATCGGTTTTCGATTAGTGCTA`, “fitted relative affinity” read 1.75 z-score.
For `GAGATCATCCGTTTCTTCTAGTGCTAG`, “fitted relative affinity” read 0.395 z-score.
`TTAGATTTCAGGCTGGATTAGTGCTAG` — result for “fitted relative affinity”: -0.256 z-score.
`GACGGTTTCCTTTCCCTGTCGTGCTAG`: “fitted relative affinity” 4.14 z-score.
`TCAATTTTCGTTTTGTGACTGTGCTAG` — result for “fitted relative affinity”: 1.67 z-score.
`TTAGAACTGAGAGTGGATTAGTGCTAG`: “fitted relative affinity” -0.29 z-score.
`TTAGTTATCGGACTGGGTTAGTGCTAG` — result for “fitted relative affinity”: -0.00438 z-score.
`TAGATCGTCCCTTTGAGAGGGTGCTAG` — result for “fitted relative affinity”: -0.558 z-score.
`GACCGTATCGACTTTCGGGACGTGCTA` — result for “fitted relative affinity”: 2.66 z-score.

Block 3
Target: Ras GTPase-activating protein-binding protein 1, C-terminal RGG region (G3BP1, Homo sapiens, UniProt Q13283)
UniProt Q13283, sequence (whole entry, looked up): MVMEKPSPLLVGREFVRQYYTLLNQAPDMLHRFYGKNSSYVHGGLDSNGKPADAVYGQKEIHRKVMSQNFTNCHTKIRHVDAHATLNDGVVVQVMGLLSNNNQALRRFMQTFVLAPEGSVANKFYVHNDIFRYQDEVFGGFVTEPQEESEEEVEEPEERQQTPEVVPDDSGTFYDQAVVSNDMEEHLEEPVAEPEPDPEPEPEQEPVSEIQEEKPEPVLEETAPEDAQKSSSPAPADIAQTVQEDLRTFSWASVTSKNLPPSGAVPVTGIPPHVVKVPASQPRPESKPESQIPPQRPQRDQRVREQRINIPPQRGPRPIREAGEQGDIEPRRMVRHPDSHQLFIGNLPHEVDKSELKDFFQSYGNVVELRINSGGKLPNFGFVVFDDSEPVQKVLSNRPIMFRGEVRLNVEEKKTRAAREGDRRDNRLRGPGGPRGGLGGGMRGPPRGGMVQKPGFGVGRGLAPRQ
Method: RNA Bind-n-Seq
Molecule type: RNA
Matrix: in vitro
Concentration: 1 µM
Notes: whole 134-nt RNA, ends assumed
With: 150 mM KCl
Reference: input library
Reading: higher = stronger binding
The log2 enrichment of `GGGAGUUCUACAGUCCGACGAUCUCCUGUGCUACACAUCGUAUGUACCGAAUCGGGGAAAGGGGUUUGGGGAAAAAAAGGGGAAAGUAUUAUGUUACGCCGUUCGGAUCUGCAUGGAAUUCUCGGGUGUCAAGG` is reported as 1.5.
`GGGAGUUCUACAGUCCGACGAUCAGUCCUGUGCUACACAUCGUAUGUACCGAAUCGGGAAAGGGAAAGGGAAAAAAAGGGAAAGUAUUAUGUUACGCCGUUCGGAUCUGCACUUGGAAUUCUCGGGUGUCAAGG` has a log2 enrichment of -0.339.
`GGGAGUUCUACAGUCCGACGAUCUGGGAGGUGGAUUUUGUUUAUUUAUUUAGCUCAUUUCCAGGGGUGGGAAUUUUUUUUUAAUAUGUGUCAUGAAUAAAGUUGUUUUUGAAAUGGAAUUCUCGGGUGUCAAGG` gave a log2 enrichment of 2.79.
For `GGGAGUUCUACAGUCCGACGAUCCAGAACGAUCGAUACAGAAACCACGCUGCCGCCACCACACCAUCACCAUCGACAGAACAGUCCUUAAUCCAGAAACCUGAAAUGAAGGAAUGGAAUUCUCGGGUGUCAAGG`, the log2 enrichment was 0.164.
With `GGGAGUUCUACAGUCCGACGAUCCUCAAGUCCUGUGCUACACAUCGUAUGUACCGAAUCGGUGGUUUUUUUGGUGGAAAGUAUUAUGUUACGCCGUUCGGAUCUGCACUUCCAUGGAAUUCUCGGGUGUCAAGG` the log2 enrichment was -0.737.
`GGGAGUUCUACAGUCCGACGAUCAGUCCUGUGCUACACAUCGUAUGUACCGAAUCGGGUUUUGGGGUUUUGGUUUUGGGGAAAGUAUUAUGUUACGCCGUUCGGAUCUGCACUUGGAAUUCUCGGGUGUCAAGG` has a log2 enrichment of -0.398.
For `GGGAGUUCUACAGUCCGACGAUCCAAGUCCUGUGCUACACAUCGUAUGUACCGAAUCGGUUUUUGGUUUGGUUUUUGGAAAGUAUUAUGUUACGCCGUUCGGAUCUGCACUUCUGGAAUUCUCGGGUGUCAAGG`, the log2 enrichment was -1.66.
`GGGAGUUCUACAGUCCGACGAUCGUCCUGUGCUACACAUCGUAUGUACCGAAUCGGGUUUUUGGGUUUUUUUGGGAAAGGGAAAGUAUUAUGUUACGCCGUUCGGAUCUGCACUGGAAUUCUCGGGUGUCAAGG` has a log2 enrichment of -0.492.
`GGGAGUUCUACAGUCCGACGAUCCAAGUCCUGUGCUACACAUCGUAUGUACCGAAUCGGAAAAAGGUUUGGUUUUUGGAAAGUAUUAUGUUACGCCGUUCGGAUCUGCACUUCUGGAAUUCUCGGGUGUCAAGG` gave a log2 enrichment of -1.61.

Block 4
Target: CCNA2, cyclin fold, Cln2 fusion (human)
Method: yeast growth competition, sequencing
Matrix: yeast
Notes: strong parent motif
Reference: not given
Reading: higher = stronger binding
Parent: CDC25A docking peptide (human); PPHRRRLLFACSP
`PPHRRRLLFHCSP [A10H]` — result for “normalised enrichment score”: 2.93.
Under “normalised enrichment score”, `PPHRRRLLFAGSP [C11G]` is recorded as 3.34.
`PPHRRRLLFRCSP [A10R]` — result for “normalised enrichment score”: 2.28.
`PPHRKRLLLACSP [R5K F9L]`: “normalised enrichment score” 0.792.
`PPDRRRLLFACSP [H3D]` — result for “normalised enrichment score”: 1.84.
Under “normalised enrichment score”, `PPHLRRLLFACSP [R4L]` is recorded as 1.78.
For `PPHCRRLLFACSP [R4C]`, “normalised enrichment score” read 3.95.
`PPHRRRLYFACSP [L8Y]` — result for “normalised enrichment score”: 3.17.
`PPHRRRLLFAESP [C11E]`: “normalised enrichment score” 3.43.
`PPHRRELLFACSP [R6E]` — result for “normalised enrichment score”: 1.02.
For `PPGRRRLLFACSP [H3G]`, “normalised enrichment score” read 3.63.
Under “normalised enrichment score”, `PPHRHRLLFACSP [R5H]` is recorded as 1.64.
Under “normalised enrichment score”, `PPHRDRLLFACSP [R5D]` is recorded as 0.285.
`PPHHRRLLFACSP [R4H]` — result for “normalised enrichment score”: 0.906.
`PPHRMRLLFACSP [R5M]`: “normalised enrichment score” 1.78.
For `LPHRRRLLFACSP [P1L]`, “normalised enrichment score” read 2.41.
Under “normalised enrichment score”, `YPHRRRLLFACSP [P1Y]` is recorded as 2.78.
Under “normalised enrichment score”, `PPHRRTLLFACSP [R6T]` is recorded as 1.04.

Excerpt of the above (block 2):
`GACGACATCAGTATCGAGACGTGCTAG` — result for “fitted relative affinity”: 1.84 z-score.
`TCATATTTAGAACTTCTCACTGTGCTA`: “fitted relative affinity” 0.423 z-score.
For `GACGGTTTGGACACTGGGGACGTGCTA`, “fitted relative affinity” read -0.322 z-score.
For `TTAGATATCGGTTTTCGATTAGTGCTA`, “fitted relative affinity” read 1.75 z-score.
For `GAGATCATCCGTTTCTTCTAGTGCTAG`, “fitted relative affinity” read 0.395 z-score.
`TTAGATTTCAGGCTGGATTAGTGCTAG` — result for “fitted relative affinity”: -0.256 z-score.
`GACGGTTTCCTTTCCCTGTCGTGCTAG`: “fitted relative affinity” 4.14 z-score.
